Measured values of several laboratories.
± marks the error that the study gave.

SMILES | assay | system | setting | how to read | endpoint | result
Cc1cc(O)cc(O)c1C(=O)c1c2c3c(c(O)cc(C)c3oc1=O)C(=O)c1c(O)cc(O)cc1-2 | – | KM mouse male, plasma | intraperitoneal, 30 mg/kg | – | CL/F | 12 mL/min/kg
Cc1cc(C)nc(NC(=S)N2CCN(Cc3ccc(C(F)(F)F)cc3)CC2)c1 | – | female NOD.SCID mice, MDA-MB-468 orthotopic xenograft, tumour | intraperitoneal, 40 mg/kg daily, 24 days | – | concentration | ~3000 nM
COC(=O)C(c1ccccc1Cl)N1CCC(SCC(=O)c2cccc(OC)c2)C(=CC(=O)O)C1 (mixture of isomers) | HPLC-MS/MS | feline EDTA plasma | 100 ng/mL, 48 h, 4 °C, storage stability | – | deviation from nominal | 1%
CCCCC/C=C/C=C/C(=O)NCC(C)C | – | processed rat plasma | 15 ng/mL, 4 h, 20 °C, autosampler stability low QC | baseline: nominal concentration | relative error | -0.67%
O=C(NC1CCCCN=CC1=O)OCc1ccccc1 (centres unmarked) | – | – | 25 °C | – | pKa | 6.18 ± 0.07
Cc1ccc(-c2ccc(-c3cc4sccc4o3)cn2)nc1 | TCSPC | toluene | – | – | fluorescence lifetime | 0.86 ns
Cc1ccc(OCC(=O)N(Cc2cccs2)c2ccn[nH]2)cc1 | – | female Sprague-Dawley rat, plasma | intravenous, 1 mg/kg, single dose | – | AUC(0-t) | 299 ng·h/mL
CNC(=O)N[C@]1(C)CCC[C@@]2(C)C3CC[C@@]4(C)C[C@]3(CCC21)CC4=O (single isomer, unassigned) | – | processed rat plasma | 1.5 ng/mL, 24 h, 4 °C, autosampler stability | baseline: nominal concentration | relative error | -2.7%
Br.Br.O=c1c(O)cccn1CCN1CCN(CCn2cccc(O)c2=O)CC1 | – | hydroxypyridinone groups | – | baseline: pKa3 over pKa2 | pKa difference | 1.4
CCN1/C(=C/C=C2\CCCC(/C=C/C3=[N+](CC)c4ccccc4C3(C)C)=C2NCCCCCCCCN2CCC(Nc3nc4ccccc4n3Cc3ccc(F)cc3)CC2)C(C)(C)c2ccccc21 | dynamic light scattering | saline and PBS, various pH | – | – | aggregate particle size range | 200 to 1000 nm
CN1CCN(Cc2ccc([C@H]3C[C@@]4(C)[C@@H](CC[C@@]4(O)C(F)(F)C(F)(F)F)[C@@H]4CCC5=CC(=O)CCC5=C43)cc2)CC1 | – | human liver microsomes | 100 % absorption assumed | – | maximal oral bioavailability | 57%
Cc1c(C(=O)Nc2ccn(C)n2)ncn1Cc1cccc(C(F)(F)F)c1 | – | C57BL/6 mice, non-transgenic, liver | oral, drinking water, 50 mg/kg daily, 10 days | – | concentration at time point | 1250 ± 291 ng/g
Oc1ccc2ccccc2c1/N=N/c1ccccc1 | – | extracted rat blood QC samples | 0.5 µg/L, 8 h, room temperature, short-term stability | – | measured concentration | 0.505 µg/L
CC[C@H](C)[C@H](NC(=O)[C@H](N)Cc1ccc(O)cc1)C(=O)N[C@H]1CSSC[C@@H](C(=O)N(C)[C@H](C(N)=O)[C@@H](C)CC)NC(=O)[C@H](CCCNC(=N)N)NC(=O)[C@H](Cc2c[nH]cn2)NC(=O)[C@H](C)NC(=O)CN(C)C(=O)[C@H](Cc2c[nH]c3ccccc23)NC(=O)[C@H](CC(=O)O)NC(=O)[C@H](CCC(N)=O)NC(=O)[C@H](Cc2cn(C)c3ccccc23)NC(=O)[C@H](C(C)C)NC1=O | UPLC-ESI-MS | human plasma | 3.58 µg/mL, 24 h, 25 °C, bench-top after SPE | – | recovery | 99.7 ± 0.9%
CC(NC(=O)OC1OC(C(=O)O)C(O)C(O)C1O)c1cc(Cl)ccc1Cn1c(=S)[nH]c(=O)c2[nH]ccc21 (centres unmarked) | – | Sprague-Dawley rat, female, plasma | oral, 125 mg/kg/day | baseline: rat over human 10 mg | exposure ratio | 2.5
CC1(c2ccc([C@H]3C[C@@]4(C)[C@@H](CC[C@@]4(O)C(F)(F)C(F)(F)F)[C@@H]4CCC5=CC(=O)CCC5=C43)cc2)COC1 | – | rat liver microsomes | 100 % absorption assumed | – | maximal oral bioavailability | 47%

SMILES | assay | system | setting | how to read | endpoint | result
Cn1c(=O)oc2ccc(-c3ccc(CC(C#N)NC(=O)C4CNCCCO4)c(F)c3)cc21 (centres unmarked) | measured: alanine aminotransferase increased | human | 15 mg single dose, fasted | – | subjects with TEAE | 0%
CC(C)C[C@H](NC(=O)[C@H](CCCCN)NC(=O)CNC(=O)[C@H](CC(C)C)NC(=O)[C@@H](NC(=O)[C@@H]1CSSC[C@H](N)C(=O)N[C@@H](CO)C(=O)N[C@@H](CC(N)=O)C(=O)N[C@@H](CC(C)C)C(=O)N[C@@H](CO)C(=O)N[C@@H]([C@@H](C)O)C(=O)N1)C(C)C)C(=O)N[C@@H](CO)C(=O)N[C@@H](CCC(N)=O)C(=O)N[C@@H](CCC(=O)O)C(=O)N[C@@H](CC(C)C)C(=O)N[C@@H](Cc1c[nH]cn1)C(=O)N[C@@H](CCCCN)C(=O)N[C@@H](CC(C)C)C(=O)N[C@@H](CCC(N)=O)C(=O)N[C@H](C(=O)N[C@@H](Cc1ccc(O)cc1)C(=O)N1CCC[C@H]1C(=O)N[C@@H](CCCNC(=N)N)C(=O)N[C@H](C(=O)N[C@@H](CC(N)=O)C(=O)N[C@H](C(=O)NCC(=O)N[C@@H](CO)C(=O)NCC(=O)N[C@H](C(=O)N1CCC[C@H]1C(N)=O)[C@@H](C)O)[C@@H](C)O)[C@@H](C)O)[C@@H](C)O | ELISA | hairless male Sprague-Dawley rat, serum | subcutaneous, 3 µg | – | AUC | 6.72 ± 4.22 ng·h/mL
CCCC[C@@H]1NC(=O)[C@@H](NC(=O)[C@H](CCC(=O)O)NC(=O)CNC(=O)CN2CCN(CC(=O)O)CCN(CC(=O)O)CCN(CC(=O)O)CC2)CCCCNC(=O)C[C@@H](C(N)=O)NC(=O)[C@H](C(C)C)NC(=O)[C@@H]2CCCN2C(=O)[C@H](CCCNC(=N)N)NC(=O)CNC(=O)[C@H](Cc2c[nH]c3ccccc23)NC(=O)[C@H](CCCNC(=N)N)NC(=O)[C@@H](Cc2ccccc2)NC(=O)[C@H](Cc2c[nH]cn2)NC(=O)[C@H](CCC(=O)O)NC1=O [gallium-67 labelled] | – | C57 mice, B16/F10 lung metastases | intravenous, 0.037 MBq, 2 h | – | urine excretion | 90.55 ± 0.38%
CC(C)C[C@H](NC(=O)C[C@H](O)[C@H](CC(C)C)NC(=O)[C@H](Cc1c[nH]cn1)NC(=O)CNC(=O)[C@@H](NC(=O)[C@H](C)NC(=O)[C@H](Cc1c[nH]c2ccccc12)NC(=O)[C@H](CCC(N)=O)NC(=O)[C@@H](Cc1ccccc1)NC(=O)CCNC(=O)CCNC(=O)CN1CCN(CC(=O)O)CCN(CC(=O)O)CCN(CC(=O)O)CC1)C(C)C)C(N)=O [lutetium-177 labelled] | – | mouse, PC-3 xenograft | intravenous, 200 pmol, 1 h | – | tumour uptake | 9 ± 3.9 %ID/g
CC1=C(/C=C/C(=O)N2CCN(C(N)=O)CC2)C(C)(C)CCC1 | – | T17M RHO transgenic mouse | dose not given, 7 weeks | baseline: vehicle | photopic ERG amplitude | no effect
CC(=O)N([O-])CCCCCNC(=O)CCC(=O)N([O-])CCCCCNC(=O)CCC(=O)N([O-])CCCCCN.[89Zr+4] | radio-iTLC | aqueous buffer | initial, pH 7.0, 37 °C, EDTA challenge, together with: 100-fold excess EDTA | – | intact complex | 96.2 ± 0.7%
[11CH3]c1ccc2nc(C3CCC3)n(-c3ccc4[nH]ncc4c3)c2n1 | extrapolated from mouse | standard human, stomach wall | – | – | absorbed dose | 5.8 µSv/MBq
CCCC[C@H](NC(=O)CNC(=O)CNC(=O)CN1CCN(CC(=O)O)CCN(CC(=O)O)CC1)C(=O)N[C@H]1CC(=O)NCCCC[C@@H](C(N)=O)NC(=O)[C@H](Cc2c[nH]c3ccccc23)NC(=O)[C@H](CCCNC(=N)N)NC(=O)[C@@H](Cc2ccccc2)NC(=O)[C@H](Cc2c[nH]cn2)NC1=O [copper-64 labelled] | – | female C57 mouse, B16/F1 melanoma | intravenous, 0.037 MBq, 4 h | baseline: tumour over liver | uptake ratio | 16.9
CC[C@H](C)[C@@H]1NC(=O)[C@@](C)(NC(=O)[C@H](CCCNC(=N)N)NC(=O)[C@H](CC(C)C)NC(=O)[C@]2(C)CCCC=CCCC[C@](C)(NC(C)=O)C(=O)N[C@@H](CC(C)C)C(=O)N[C@@H](CCC(N)=O)C(=O)N2)CCCC=CCCC[C@@](C)(C(=O)N[C@@H](CC(C)C)C(=O)N[C@@H](Cc2ccc3ccccc3c2)C(=O)NCCC(=O)NCCC(N)=O)NC(=O)[C@H](CCCNC(=N)N)NC(=O)[C@H](CCC(N)=O)NC1=O | – | BALB/c mice | intraperitoneal, 30 mg/kg | – | terminal half-life | 9.81 h
COc1cc(C(=O)COC(=O)CCCN)cc(OC)c1O | pump-probe transient absorption | 10% acetonitrile in water | – | – | triplet lifetime | 0.36 ns
CC(C)[C@H](NC(=O)[C@@H]1CCCN1C(=O)[C@H](CCCNC(=N)N)NC(=O)[C@H](CS)NC(=O)[C@H](Cc1c[nH]c2ccccc12)NC(=O)[C@H](CCCNC(=N)N)NC(=O)[C@@H](Cc1ccccc1)NC(=O)[C@H](Cc1c[nH]cn1)NC(=O)[C@H](CCC(=O)O)NC(=O)[C@H](CS)NC(=O)[C@H](CS)NC(=O)CNC(=O)[C@@H]1CC(=O)N[C@@H](CCCNC(=N)N)C(=O)NCC(=O)N[C@@H](CC(=O)O)C(=O)N[C@H](Cc2ccc(O)cc2)C(=O)N1)C(N)=O [technetium-99m labelled] | – | C57 mice B16/F1 melanoma female | iv, 2 h, together with: NDP-MSH blockade | baseline: tumour over blood | tumour-to-tissue ratio | 5.84
[11CH3]N1CCN(CCCOc2ccc(=O)n(-c3ccc(Cl)c(Cl)c3)n2)CC1 | radiotracer | mouse BALB/c male, liver | intravenous, 30 min | – | maximum uptake | 14.7 ± 2.03 %ID/cc
CCOc1ccc2c(c1)C(C)=CC(C)(C)N2c1cc(OCC)cc2c1NC(C)(C)C=C2C | LC-MS/MS | laying hens, skin and fat | oral in feed, 50 mg/kg feed ethoxyquin, 56 days | – | tissue residue | 42.3 ± 19.2 ng/g
CN1CCC[C@]1(C)/C=C/S(=O)(=O)NC(=O)Nc1c2c(cc3c1CCC3)CCC2 | – | human, plasma | oral, 250 mg, single dose, healthy volunteers | – | AUC(0-inf) | 247 µg·h/mL
COc1cccc(C=NCCCN(C)CCN(C)CCCN=Cc2cccc(OC)c2[O-])c1[O-].[67Ga+3] | – | male rat, heart | iv, 1 min | – | uptake | 2 %ID/organ
CCNC(=O)c1noc(-c2cc(C(C)C)c(O)cc2O)c1NC(=O)CCN1CCOCC1 | – | CD1 nude mouse, A-431 xenograft, plasma | intraperitoneal, 80 mg/kg single | – | Tmax | 1 h

Repeated from above:
SMILES | assay | system | setting | how to read | endpoint | result
Cn1c(=O)oc2ccc(-c3ccc(CC(C#N)NC(=O)C4CNCCCO4)c(F)c3)cc21 (centres unmarked) | measured: alanine aminotransferase increased | human | 15 mg single dose, fasted | – | subjects with TEAE | 0%
CC(C)[C@H](NC(=O)[C@@H]1CCCN1C(=O)[C@H](CCCNC(=N)N)NC(=O)[C@H](CS)NC(=O)[C@H](Cc1c[nH]c2ccccc12)NC(=O)[C@H](CCCNC(=N)N)NC(=O)[C@@H](Cc1ccccc1)NC(=O)[C@H](Cc1c[nH]cn1)NC(=O)[C@H](CCC(=O)O)NC(=O)[C@H](CS)NC(=O)[C@H](CS)NC(=O)CNC(=O)[C@@H]1CC(=O)N[C@@H](CCCNC(=N)N)C(=O)NCC(=O)N[C@@H](CC(=O)O)C(=O)N[C@H](Cc2ccc(O)cc2)C(=O)N1)C(N)=O [technetium-99m labelled] | – | C57 mice B16/F1 melanoma female | iv, 2 h, together with: NDP-MSH blockade | baseline: tumour over blood | tumour-to-tissue ratio | 5.84
CC(C)C[C@H](NC(=O)C[C@H](O)[C@H](CC(C)C)NC(=O)[C@H](Cc1c[nH]cn1)NC(=O)CNC(=O)[C@@H](NC(=O)[C@H](C)NC(=O)[C@H](Cc1c[nH]c2ccccc12)NC(=O)[C@H](CCC(N)=O)NC(=O)[C@@H](Cc1ccccc1)NC(=O)CCNC(=O)CCNC(=O)CN1CCN(CC(=O)O)CCN(CC(=O)O)CCN(CC(=O)O)CC1)C(C)C)C(N)=O [lutetium-177 labelled] | – | mouse, PC-3 xenograft | intravenous, 200 pmol, 1 h | – | tumour uptake | 9 ± 3.9 %ID/g
CC[C@H](C)[C@H](NC(=O)[C@H](N)Cc1ccc(O)cc1)C(=O)N[C@H]1CSSC[C@@H](C(=O)N(C)[C@H](C(N)=O)[C@@H](C)CC)NC(=O)[C@H](CCCNC(=N)N)NC(=O)[C@H](Cc2c[nH]cn2)NC(=O)[C@H](C)NC(=O)CN(C)C(=O)[C@H](Cc2c[nH]c3ccccc23)NC(=O)[C@H](CC(=O)O)NC(=O)[C@H](CCC(N)=O)NC(=O)[C@H](Cc2cn(C)c3ccccc23)NC(=O)[C@H](C(C)C)NC1=O | UPLC-ESI-MS | human plasma | 3.58 µg/mL, 24 h, 25 °C, bench-top after SPE | – | recovery | 99.7 ± 0.9%
CC(C)C[C@H](NC(=O)[C@H](CCCCN)NC(=O)CNC(=O)[C@H](CC(C)C)NC(=O)[C@@H](NC(=O)[C@@H]1CSSC[C@H](N)C(=O)N[C@@H](CO)C(=O)N[C@@H](CC(N)=O)C(=O)N[C@@H](CC(C)C)C(=O)N[C@@H](CO)C(=O)N[C@@H]([C@@H](C)O)C(=O)N1)C(C)C)C(=O)N[C@@H](CO)C(=O)N[C@@H](CCC(N)=O)C(=O)N[C@@H](CCC(=O)O)C(=O)N[C@@H](CC(C)C)C(=O)N[C@@H](Cc1c[nH]cn1)C(=O)N[C@@H](CCCCN)C(=O)N[C@@H](CC(C)C)C(=O)N[C@@H](CCC(N)=O)C(=O)N[C@H](C(=O)N[C@@H](Cc1ccc(O)cc1)C(=O)N1CCC[C@H]1C(=O)N[C@@H](CCCNC(=N)N)C(=O)N[C@H](C(=O)N[C@@H](CC(N)=O)C(=O)N[C@H](C(=O)NCC(=O)N[C@@H](CO)C(=O)NCC(=O)N[C@H](C(=O)N1CCC[C@H]1C(N)=O)[C@@H](C)O)[C@@H](C)O)[C@@H](C)O)[C@@H](C)O | ELISA | hairless male Sprague-Dawley rat, serum | subcutaneous, 3 µg | – | AUC | 6.72 ± 4.22 ng·h/mL
